# Published values from different studies.
# Each numbered part is a random draw from the data of one study; scales do not carry over between parts. Substitutions count along the parent as printed.

# Block 1
# Target: Interferon regulatory factor 3, full length, phosphomimetic (IRF3, Homo sapiens, UniProt Q14653, residues 1-427, S386D/S396D/S398D/S402D/T404D/S405D)
# Chain of UniProt Q14653 (whole entry, unmodified, looked up): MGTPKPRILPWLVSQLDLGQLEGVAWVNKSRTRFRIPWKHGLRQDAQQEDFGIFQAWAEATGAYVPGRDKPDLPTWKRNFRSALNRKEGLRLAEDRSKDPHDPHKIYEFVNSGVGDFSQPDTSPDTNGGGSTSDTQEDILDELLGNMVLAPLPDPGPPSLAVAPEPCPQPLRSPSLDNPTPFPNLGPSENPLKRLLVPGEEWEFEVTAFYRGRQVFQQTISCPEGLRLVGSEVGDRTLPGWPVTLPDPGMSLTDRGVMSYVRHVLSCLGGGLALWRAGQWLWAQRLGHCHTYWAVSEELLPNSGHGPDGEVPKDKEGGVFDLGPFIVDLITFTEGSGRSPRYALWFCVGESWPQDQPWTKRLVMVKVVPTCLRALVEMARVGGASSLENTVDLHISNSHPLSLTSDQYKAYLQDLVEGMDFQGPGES
# Technique: protein-binding microarray
# Form: double-stranded DNA, one strand shown
# Medium: in vitro
# Tested at: 2540 nM top
# Notes: 60-bp whole probe
# Added: salmon DNA 0.4 mg/ml
# Reference: random background probes
# Reading: higher = stronger binding
# Constant ends, left off below: GCCTAGCAC … GTCTTGATTCGCTTGACGCTGCTG
Strand,fitted relative affinity
CTCTATTGCTTTCTCTTTCAGTGCTAG,2.54 z-score
GACGGTTTCCTACTGCAGACGTGCTAG,5.5 z-score
GACGGTTTTGGGACTGGGGACGTGCTA,1.2 z-score
TCATATATGAATATATAACTGTGCTAG,0.717 z-score
CTTTAACTCATTCTCCACTTGTGCTAG,1.71 z-score
TTAGGTCTCCTTTTCCTTTAGTGCTAG,5.09 z-score
ATAGGACTGGGGTATCGGTTAGTGCTA,-0.0259 z-score
GACGGTATCGACACAGGGGACGTGCTA,0.537 z-score

# Block 2
# Target: CCNA2, cyclin fold, Cln2 fusion (human)
# Technique: yeast growth competition, sequencing
# Medium: yeast
# Notes: strong parent motif
# Reference: not given
# Reading: higher = stronger binding
# Starting sequence: HASPIN docking peptide (human); ASLRSVLFGLMNS
Variant,normalised enrichment score
S2A,0.846
L10A,0.93
G9A,1.85
S13A,1.35
M11A,1.82
R4A,0.69

# Block 3
# Target: Histone acetyltransferase KAT6A, both winged helices, GST fusion (KAT6A, Homo sapiens, UniProt Q92794, residues 1-181)
# Technique: protein binding microarray
# Form: double-stranded DNA, one strand shown
# Medium: in vitro
# Tested at: not given
# Notes: 8-mer, flanks averaged, mean of 2 arrays, mostly near background
# Reference: not given
# Reading: higher = stronger binding
# Construct (chain): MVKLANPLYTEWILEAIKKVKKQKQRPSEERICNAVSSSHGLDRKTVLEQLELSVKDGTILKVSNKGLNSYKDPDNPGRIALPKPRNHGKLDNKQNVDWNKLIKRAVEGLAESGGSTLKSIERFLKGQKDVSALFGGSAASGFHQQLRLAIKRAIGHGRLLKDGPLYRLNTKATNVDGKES
Strand,E-score
GTCATTAA,-0.0239
CCTCCCGC,0.221
CATACTTC,-0.109
CGCAGTAA,0.134
AACCCCGC,0.232
ACAATTCC,-0.0974
ATATGCTC,-0.0921
AAGAGTAA,0.0156

# Mixed results
Molecule,target,test,system,conditions,scale,endpoint,result
"PhoQ, residues 284 288 289 292 302 303 SVTLVV","PhoP, residues 12 14 15 18 19 SQCLL (Escherichia coli, UniProt P23836)","Sort-seq, item: YFP reporter",E. coli,"PhoQ-PhoP variant library, added: 10 µM Mg2+","reference: high Mg2+ state, higher = stronger signaling",fold induction,15.3
